Assay results pooled from the literature.
Parts stem from different laboratories: compare values within a part only.
Sequence of UniProt P10721 (whole entry, unmodified, looked up): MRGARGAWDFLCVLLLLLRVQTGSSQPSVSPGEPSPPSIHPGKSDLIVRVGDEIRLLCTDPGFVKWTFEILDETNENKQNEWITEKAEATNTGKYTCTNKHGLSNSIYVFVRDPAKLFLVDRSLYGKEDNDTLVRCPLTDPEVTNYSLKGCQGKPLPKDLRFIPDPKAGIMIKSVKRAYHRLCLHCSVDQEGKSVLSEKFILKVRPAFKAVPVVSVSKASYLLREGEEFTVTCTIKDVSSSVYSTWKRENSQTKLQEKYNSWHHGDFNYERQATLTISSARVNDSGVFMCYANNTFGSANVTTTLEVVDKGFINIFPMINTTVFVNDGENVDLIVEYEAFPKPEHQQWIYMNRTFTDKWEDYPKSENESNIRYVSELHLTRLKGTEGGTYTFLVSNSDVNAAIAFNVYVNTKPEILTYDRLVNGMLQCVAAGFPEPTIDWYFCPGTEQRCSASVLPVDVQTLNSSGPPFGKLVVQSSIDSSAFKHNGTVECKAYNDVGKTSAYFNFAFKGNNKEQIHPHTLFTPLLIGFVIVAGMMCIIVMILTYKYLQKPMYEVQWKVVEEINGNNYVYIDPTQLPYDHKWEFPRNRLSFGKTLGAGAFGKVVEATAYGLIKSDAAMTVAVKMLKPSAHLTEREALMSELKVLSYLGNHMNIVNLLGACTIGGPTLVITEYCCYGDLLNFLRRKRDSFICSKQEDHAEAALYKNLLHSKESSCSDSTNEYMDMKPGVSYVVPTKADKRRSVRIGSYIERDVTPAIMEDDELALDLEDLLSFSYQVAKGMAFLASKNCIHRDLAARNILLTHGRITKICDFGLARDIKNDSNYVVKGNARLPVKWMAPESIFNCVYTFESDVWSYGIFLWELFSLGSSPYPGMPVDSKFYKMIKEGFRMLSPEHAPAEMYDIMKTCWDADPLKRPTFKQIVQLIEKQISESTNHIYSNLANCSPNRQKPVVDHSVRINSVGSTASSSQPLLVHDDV
Sequence of UniProt P36507 (whole entry, looked up): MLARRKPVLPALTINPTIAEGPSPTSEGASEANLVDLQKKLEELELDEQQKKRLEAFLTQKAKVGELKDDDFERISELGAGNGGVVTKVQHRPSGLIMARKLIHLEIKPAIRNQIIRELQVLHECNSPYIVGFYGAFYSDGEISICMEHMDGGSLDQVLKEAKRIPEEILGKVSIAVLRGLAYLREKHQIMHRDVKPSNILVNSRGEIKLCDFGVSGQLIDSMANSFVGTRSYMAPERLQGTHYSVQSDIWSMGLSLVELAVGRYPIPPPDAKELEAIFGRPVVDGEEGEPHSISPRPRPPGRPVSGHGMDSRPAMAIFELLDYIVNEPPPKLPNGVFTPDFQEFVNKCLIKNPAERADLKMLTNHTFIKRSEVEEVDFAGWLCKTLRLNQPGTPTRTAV
Sequence of UniProt O75676 (whole entry, looked up): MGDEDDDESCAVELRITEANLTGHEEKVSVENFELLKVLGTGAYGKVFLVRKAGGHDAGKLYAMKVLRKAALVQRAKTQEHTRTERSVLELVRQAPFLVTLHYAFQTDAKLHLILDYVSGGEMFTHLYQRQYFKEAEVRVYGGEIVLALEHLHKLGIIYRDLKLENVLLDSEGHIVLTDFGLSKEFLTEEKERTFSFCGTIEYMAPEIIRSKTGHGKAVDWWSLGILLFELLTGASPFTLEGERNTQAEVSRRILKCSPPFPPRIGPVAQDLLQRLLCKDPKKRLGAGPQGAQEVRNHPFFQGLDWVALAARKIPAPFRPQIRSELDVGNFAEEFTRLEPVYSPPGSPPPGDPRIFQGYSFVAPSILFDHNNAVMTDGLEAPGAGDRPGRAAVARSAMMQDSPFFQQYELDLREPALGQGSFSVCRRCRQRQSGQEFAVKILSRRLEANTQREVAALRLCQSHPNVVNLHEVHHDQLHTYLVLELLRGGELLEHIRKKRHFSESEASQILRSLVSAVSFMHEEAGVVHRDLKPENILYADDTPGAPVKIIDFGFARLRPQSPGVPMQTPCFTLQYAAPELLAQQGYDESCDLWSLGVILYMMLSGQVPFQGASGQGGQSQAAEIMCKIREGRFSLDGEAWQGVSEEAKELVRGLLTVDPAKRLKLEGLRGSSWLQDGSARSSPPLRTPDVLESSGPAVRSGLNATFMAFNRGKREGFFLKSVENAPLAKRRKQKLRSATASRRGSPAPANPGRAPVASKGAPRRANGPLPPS
Sequence of UniProt Q8TDC3 (whole entry, looked up): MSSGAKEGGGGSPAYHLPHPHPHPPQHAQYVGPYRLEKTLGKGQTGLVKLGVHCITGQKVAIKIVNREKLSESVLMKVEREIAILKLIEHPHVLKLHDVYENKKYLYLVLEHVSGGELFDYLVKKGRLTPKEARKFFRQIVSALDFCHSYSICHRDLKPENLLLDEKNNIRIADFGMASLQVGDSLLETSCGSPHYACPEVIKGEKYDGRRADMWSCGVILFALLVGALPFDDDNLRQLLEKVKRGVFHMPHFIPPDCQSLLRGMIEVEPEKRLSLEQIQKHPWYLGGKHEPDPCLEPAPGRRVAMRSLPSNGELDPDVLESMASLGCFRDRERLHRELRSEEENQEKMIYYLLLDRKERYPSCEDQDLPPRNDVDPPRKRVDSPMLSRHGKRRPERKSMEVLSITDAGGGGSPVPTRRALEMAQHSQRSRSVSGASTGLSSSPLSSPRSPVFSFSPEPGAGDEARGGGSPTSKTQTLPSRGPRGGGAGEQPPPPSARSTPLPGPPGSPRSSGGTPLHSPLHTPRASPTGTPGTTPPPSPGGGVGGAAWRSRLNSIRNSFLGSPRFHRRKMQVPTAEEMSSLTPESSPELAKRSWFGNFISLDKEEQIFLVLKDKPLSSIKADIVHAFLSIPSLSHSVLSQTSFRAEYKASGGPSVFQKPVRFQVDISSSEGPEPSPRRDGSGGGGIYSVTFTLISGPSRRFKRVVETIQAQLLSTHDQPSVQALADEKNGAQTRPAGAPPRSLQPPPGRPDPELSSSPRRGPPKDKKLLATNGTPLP
Sequence of UniProt Q15208 (whole entry, looked up): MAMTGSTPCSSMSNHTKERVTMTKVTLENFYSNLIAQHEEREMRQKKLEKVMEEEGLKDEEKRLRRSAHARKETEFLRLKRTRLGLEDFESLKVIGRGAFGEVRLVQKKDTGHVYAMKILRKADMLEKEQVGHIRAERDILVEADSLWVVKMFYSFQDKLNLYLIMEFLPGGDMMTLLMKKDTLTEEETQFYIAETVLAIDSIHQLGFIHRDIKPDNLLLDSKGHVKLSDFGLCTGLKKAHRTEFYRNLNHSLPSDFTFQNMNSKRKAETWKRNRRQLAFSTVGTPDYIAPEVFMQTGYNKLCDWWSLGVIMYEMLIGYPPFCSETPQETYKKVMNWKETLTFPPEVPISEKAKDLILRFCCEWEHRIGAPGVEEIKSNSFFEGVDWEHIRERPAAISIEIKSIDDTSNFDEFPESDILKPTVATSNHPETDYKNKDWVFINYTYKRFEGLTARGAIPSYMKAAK
Sequence of UniProt P48729 (whole entry, looked up): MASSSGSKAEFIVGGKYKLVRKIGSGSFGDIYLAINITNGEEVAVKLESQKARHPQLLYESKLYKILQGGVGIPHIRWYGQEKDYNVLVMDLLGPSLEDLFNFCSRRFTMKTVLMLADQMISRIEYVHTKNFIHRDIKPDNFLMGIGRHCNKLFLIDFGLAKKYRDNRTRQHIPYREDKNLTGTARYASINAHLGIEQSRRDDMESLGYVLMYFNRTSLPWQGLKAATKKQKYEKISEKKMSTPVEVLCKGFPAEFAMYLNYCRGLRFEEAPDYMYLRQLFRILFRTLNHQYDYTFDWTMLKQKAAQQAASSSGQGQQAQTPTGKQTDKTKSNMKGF

Set 1 — observed: cell-free assay; technique: competition with immobilised ligand; tested at: 1 µM
Structure (SMILES): Cc1nc(C2CCN(C(=O)c3ccc(OC(F)(F)F)cc3N)CC2)c2ncc(N3CCN(C)CC3)cc2n1
target | remaining binding
MET (Homo sapiens, UniProt P08581) | 94%
PIK3CA (Homo sapiens, UniProt P42336, H1047Y) | 69%
MAP2K2 (Homo sapiens, UniProt P36507) | 100%
MAP4K5 (Homo sapiens, UniProt Q9Y4K4) | 100%
FGFR4 (Homo sapiens, UniProt P22455) | 100%
MYLK (Homo sapiens, UniProt Q15746) | 100%
BRSK1 (Homo sapiens, UniProt Q8TDC3) | 100%
Tyrosine-protein kinase ABL1, non-phosphorylated (ABL1, Homo sapiens, UniProt P00519, H396P) | 78%
STK38 (Homo sapiens, UniProt Q15208) | 94%
EPHB1 (Homo sapiens, UniProt P54762) | 95%
DDR1 (Homo sapiens, UniProt Q08345) | 100%
Ribosomal protein S6 kinase alpha-4, C-terminal kinase domain (RPS6KA4, Homo sapiens, UniProt O75676) | 93%
ROCK1 (Homo sapiens, UniProt Q13464) | 100%
PIKFYVE (Homo sapiens, UniProt Q9Y2I7) | 100%
Tyrosine-protein kinase ABL1, non-phosphorylated (ABL1, Homo sapiens, UniProt P00519) | 92%
HIPK2 (Homo sapiens, UniProt Q9H2X6) | 93%
SBK3 (Homo sapiens, UniProt P0C264) | 77%
TNK1 (Homo sapiens, UniProt Q13470) | 100%
CLK1 (Homo sapiens, UniProt P49759) | 100%
SRPK2 (Homo sapiens, UniProt P78362) | 74%
KIT (Homo sapiens, UniProt P10721, T670I/V559D) | 100%
CSNK1A1 (Homo sapiens, UniProt P48729) | 100%
SRMS (Homo sapiens, UniProt Q9H3Y6) | 100%
EGFR (Homo sapiens, UniProt P00533, G719S) | 100%
EGFR (Homo sapiens, UniProt P00533, L861Q) | 100%

Set 2 — observed: enzyme activity; action: inhibitor; tested at: 0.5 µM; relative to: control
Target: Tyrosine-protein kinase Fer (FER, Homo sapiens, UniProt P16591)
Sequence of UniProt P16591 (whole entry, looked up): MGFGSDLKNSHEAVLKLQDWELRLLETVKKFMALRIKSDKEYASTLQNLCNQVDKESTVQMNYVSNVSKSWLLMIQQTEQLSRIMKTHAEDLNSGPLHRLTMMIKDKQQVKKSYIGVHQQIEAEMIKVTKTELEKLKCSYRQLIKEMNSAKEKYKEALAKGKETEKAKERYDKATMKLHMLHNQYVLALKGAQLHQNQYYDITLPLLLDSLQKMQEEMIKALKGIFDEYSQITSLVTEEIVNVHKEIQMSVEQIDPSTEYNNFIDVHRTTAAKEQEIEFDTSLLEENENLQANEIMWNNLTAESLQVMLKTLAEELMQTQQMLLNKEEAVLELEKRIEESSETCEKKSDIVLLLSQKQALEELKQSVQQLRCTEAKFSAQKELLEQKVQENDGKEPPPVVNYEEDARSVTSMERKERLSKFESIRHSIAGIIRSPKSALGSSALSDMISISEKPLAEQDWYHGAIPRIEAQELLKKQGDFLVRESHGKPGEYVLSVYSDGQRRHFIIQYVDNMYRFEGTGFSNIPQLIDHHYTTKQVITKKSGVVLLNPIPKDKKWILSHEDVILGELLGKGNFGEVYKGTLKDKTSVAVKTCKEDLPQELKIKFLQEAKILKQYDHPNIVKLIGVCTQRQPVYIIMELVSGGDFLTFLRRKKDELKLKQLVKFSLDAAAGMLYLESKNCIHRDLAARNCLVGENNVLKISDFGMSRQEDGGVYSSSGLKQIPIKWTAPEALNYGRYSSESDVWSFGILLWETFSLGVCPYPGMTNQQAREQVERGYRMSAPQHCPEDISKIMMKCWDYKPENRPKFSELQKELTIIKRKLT
SMILES | remaining activity [%]
O=C(Nc1cccc(Nc2nccc(Nc3cccc(C(F)(F)F)c3)n2)c1)C1CC1 | 93
c1ccc(-c2[nH]ncc2-c2ccnc3ccccc23)nc1 | 86
Ic1cccc(CSc2nnc(-c3ccncc3)o2)c1 | 101
COc1cc2c(cc1OC)-c1[nH]nc(Nc3cccc(F)c3)c1C2 | 94
CN([C@@H](Cc1ccc(OS(=O)(=O)c2cccc3cnccc23)cc1)C(=O)N1CCN(c2ccccc2)CC1)S(=O)(=O)c1cccc2cnccc12 | 100
O=C1C(Cl)=C(N2C(=O)CCC2=O)C(=O)c2ccccc21 | 103
O=C1c2ccccc2-c2n[nH]c3cccc1c23 | 69.4
COc1cc2ncnc(Nc3ccc(O)c(Br)c3)c2cc1OC | 85.2
CN(C)C[C@H]1CCn2c(c(C3=C(c4cn(C)c5ccccc45)C(=O)NC3=O)c3ccccc32)C1 | 69.2
CCN(CC)CCNC(=O)c1c(C)[nH]c(/C=C2\C(=O)Nc3ccc(F)cc32)c1C | 31.6
CCN(CC)C(=O)c1ccc(Nc2nc(OCC3CCCCC3)c3[nH]cnc3n2)cc1 | 42
Nc1cccc(-c2cc3c(Oc4cccc(O)c4)ncnc3[nH]2)c1 | 44
COc1cc2ncnc(Nc3cccc(Cl)c3)c2cc1OC | 77.1
N#Cc1c(NC(=O)c2cccc3ccccc23)sc2c1CCCC2 | 99.7
CCOc1nc(NC(=O)Cc2cc(OC)ccc2OC)cc(N)c1C#N | 94.1
Cn1nc2c3c(cccc31)C(=O)c1ccccc1-2 | 99.2
c1ccc(-c2cnc(Nc3ccc(OCCN4CCCC4)cc3)s2)cc1 | 90
O=C(NC(NC(=S)Nc1ccc(F)c([N+](=O)[O-])c1)C(Cl)(Cl)Cl)C(c1ccccc1)c1ccccc1 (stereo not drawn) | 104
N#C/C(=C\c1ccc(O)c(O)c1)C(=O)NCc1ccccc1 | 86.2
Cc1nc2cc3nc(-c4cccs4)cnc3cc2n1C | 104
Cc1cc2ncc(-c3ccccc3)nc2cc1C | 91
Cc1cn(-c2cc(NC(=O)c3ccc(C)c(Nc4nccc(-c5cccnc5)n4)c3)cc(C(F)(F)F)c2)cn1 | 93.6

Set 3 — observed: enzyme activity; action: inhibitor; tested at: 10 µM
Target: Calcium/calmodulin-dependent protein kinase type II subunit alpha (CAMK2A, Homo sapiens, UniProt Q9UQM7)
Sequence of UniProt Q9UQM7 (whole entry, looked up): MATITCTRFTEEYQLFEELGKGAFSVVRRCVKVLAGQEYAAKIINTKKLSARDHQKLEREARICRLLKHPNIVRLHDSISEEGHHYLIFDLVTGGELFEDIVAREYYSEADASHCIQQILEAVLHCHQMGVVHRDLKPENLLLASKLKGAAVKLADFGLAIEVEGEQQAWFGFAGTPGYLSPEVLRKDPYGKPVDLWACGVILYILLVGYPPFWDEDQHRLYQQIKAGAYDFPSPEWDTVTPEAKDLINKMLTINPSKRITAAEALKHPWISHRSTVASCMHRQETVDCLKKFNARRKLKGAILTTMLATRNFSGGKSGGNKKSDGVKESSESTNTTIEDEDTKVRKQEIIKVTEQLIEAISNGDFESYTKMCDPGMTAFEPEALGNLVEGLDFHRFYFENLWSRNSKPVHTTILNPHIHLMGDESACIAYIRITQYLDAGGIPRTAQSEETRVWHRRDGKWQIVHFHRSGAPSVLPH
SMILES | inhibition [%]
Cc1c(Cl)c(C)[n+]([O-])c(Cl)c1-c1noc(-c2cc(O)c(O)c([N+](=O)[O-])c2)n1 | 9
COc1cc(O)c2c(=O)cc(-c3ccccc3)oc2c1 | -10
O=C(O)c1ncccc1O | -8
Cc1cc(CC(C)CC(C)(C)C)n(O)c(=O)c1 (stereo not drawn) | -7
O=C(CCc1ccc(O)cc1)c1c(O)cc(O)cc1O[C@@H]1O[C@H](CO)[C@@H](O)[C@H](O)[C@H]1O | 22
O=C(O)c1cc(O)c2c(c1)C(=O)c1cccc(O[C@@H]3O[C@H](CO)[C@@H](O)[C@H](O)[C@H]3O)c1C2=O | -12
OCc1ccc(CO)o1 | -29
CC(C)=CCc1c(-c2ccc(O)cc2O)oc2c(CC=C(C)C)c(O)cc(O)c2c1=O | 28
COc1cc(/C=C/C(=O)NCC(O)c2ccc(O)cc2)ccc1O (stereo not drawn) | -11
Cc1cc2c(cc1CC(=O)c1sccc1S(=O)(=O)Nc1onc(C)c1Cl)OCO2 | -9
OCCOCCN1CCN(C(c2ccccc2)c2ccccc2)CC1 | -8
COc1ccc(-c2cc(=O)c3c(OC)cc(OC)c(OC)c3o2)cc1 | -18

Mixed results
Compound | test | test system | conditions | quantity | result
CC(C)n1cnc(-c2ccc(F)cc2)c1-c1ncc(C(=O)Nc2ccc(N3CCN(C)CC3)cc2)[nH]1 | phase 2a clinical trial | patients with idiopathic pulmonary fibrosis | 30 mg once daily | patients with immunoglobulins increased TEAE | 0%

For quick reference, copied from above (set 1):
target | remaining binding
MAP4K5 (Homo sapiens, UniProt Q9Y4K4) | 100%
FGFR4 (Homo sapiens, UniProt P22455) | 100%
MYLK (Homo sapiens, UniProt Q15746) | 100%
BRSK1 (Homo sapiens, UniProt Q8TDC3) | 100%
Tyrosine-protein kinase ABL1, non-phosphorylated (ABL1, Homo sapiens, UniProt P00519, H396P) | 78%
STK38 (Homo sapiens, UniProt Q15208) | 94%
EPHB1 (Homo sapiens, UniProt P54762) | 95%
DDR1 (Homo sapiens, UniProt Q08345) | 100%
